Published values from different studies.
Protocols differ between the studies behind these lines. Values joined by “and” are separate records of one study, mostly repeats; a detail may differ. Numbers after ± are the reported error.

CCOc1c([C@H](C)n2nc(C)c3c(N)ncnc32)cc(Cl)c(F)c1[C@@H]1CNC(=O)C1 — Cmin (human patients, plasma; oral, 30 mg, day 15, all cohorts): 343 ± 203 nM
C[C@@H]1CCO[C@H]2Cn3cc(C(=O)NCc4ccc(F)cc4F)c(=O)c(O)c3C(=O)N12 — Cmin (human, haemodialysis patients, plasma; oral, dose not given, steady state, fixed-dose combination): 1000 ng/mL
Cc1ncnc2c1ccn2[C@@H]1C[C@H](Oc2cc(C(F)F)c(F)c3c2CNCC3)[C@@H](O)[C@H]1O — Cmin (human, plasma; 8 mg once daily): 44.4 ng/mL and 21.6 ng/mL
C[C@H](CCC(=O)O)[C@H]1CC[C@H]2[C@@H]3[C@H](O)C[C@@H]4C[C@H](O)CC[C@]4(C)[C@H]3CC[C@]12C — Cmin (human, plasma; endogenous baseline diurnal): 86.3 ± 24.4 nM
O=C(O)CCC(=O)O.[2H]C([2H])([2H])Oc1cc(C)c2[nH]ccc2c1CN1CC[C@@H](C2CC2)C[C@H]1c1ccc(C(=O)O)cc1 — Cmin (human, plasma; 100 mg twice daily, day 10, multiple ascending dose, geometric mean): 3000 ng/mL
Cc1cc(/C=C/C#N)cc(C)c1Nc1ccnc(Nc2ccc(C#N)cc2)n1 — Cmin (human, normal renal function, plasma; oral, dose not given, steady state, fixed-dose combination): 60 ng/mL
O=C(O)CCCCCCCCCCCCCCC(=O)O — Cmin (human, plasma; endogenous baseline diurnal): 109 ± 14 nM
CCc1cc2c(cc1N1CCC(N3CCOCC3)CC1)C(C)(C)c1[nH]c3cc(C#N)ccc3c1C2=O — Cmin (LC-MS; human, plasma; oral, 600 mg twice daily, cycle 1 day 15): 1060 ng/mL
Cn1cc(-c2cn3nccc3c(-c3cnn([C@]4(CC#N)C[C@@H](C#N)C4)c3)n2)cn1 — Cmin (healthy humans fed, plasma; 400 mg once daily, day 10, geometric mean): 24.8 ng/mL
Fc1ccc([C@@H]2CCNC[C@H]2COc2ccc3c(c2)OCO3)cc1 — Cmin (human, CYP2D6 intermediate metabolizers, plasma; oral, 20 mg, steady state): 21 ng/mL
O=C(O)CCCCCCCCCCC(=O)O — Cmin (human, plasma; endogenous baseline diurnal): 18.1 ± 2.6 nM
Nc1c2c(cc3c1CCC3)CCC2 — Cmin (human, plasma; oral, 300 mg twice daily of GDC-2394, day 7, multiple ascending dose): 13.9 ng/mL
O=C(O)CCCCCCCCCCCCCCCCC(=O)O — Cmin (human, plasma; control): 53 ± 3.7 nM
CCCCOCCOc1ccc(-c2ccc3c(c2)/C=C(/C(=O)Nc2ccc([S@@+]([O-])Cc4cncn4CCC)cc2)CCCN3CC(C)C)cc1 — Cmin (human, matched controls (moderate impairment), plasma; oral, 150 mg, day 1): 64.2 ng/mL
C[C@H](CCC(=O)NCCS(=O)(=O)O)[C@H]1CC[C@H]2[C@@H]3CC[C@@H]4C[C@H](OS(=O)(=O)O)CC[C@]4(C)[C@H]3CC[C@]12C — Cmin (human, plasma; baseline): 58.1 ± 12.2 nM
CCN(CCO)CCCC(C)Nc1ccnc2cc(Cl)ccc12 (stereo not shown) — Cmin (human patient, whole blood; oral, 400 mg, steady state): 835 ng/mL and 1020 ng/mL and 682 ng/mL and 814 ng/mL and 1010 ng/mL and 1180 ng/mL and 895 ng/mL

Repeated from above:
O=C(O)CCC(=O)O.[2H]C([2H])([2H])Oc1cc(C)c2[nH]ccc2c1CN1CC[C@@H](C2CC2)C[C@H]1c1ccc(C(=O)O)cc1 — Cmin (human, plasma; 100 mg twice daily, day 10, multiple ascending dose, geometric mean): 3000 ng/mL
Cc1cc(/C=C/C#N)cc(C)c1Nc1ccnc(Nc2ccc(C#N)cc2)n1 — Cmin (human, normal renal function, plasma; oral, dose not given, steady state, fixed-dose combination): 60 ng/mL
